Experimental data of several laboratories.
A part holds a random share of what one study measured. Positions count from the first letter of the parent shown.

Study 1 — technique: RNA Bind-n-Seq; molecule type: RNA; medium: in vitro; concentration: 100 nM; relative to: input RNA pool; reading: higher = stronger binding
Target: RING finger protein unkempt homolog, zinc fingers 1-6, SBP tag (UNK, Homo sapiens, UniProt Q9C0B0, residues 30-357)
UniProt Q9C0B0, sequence (30-357, looked up): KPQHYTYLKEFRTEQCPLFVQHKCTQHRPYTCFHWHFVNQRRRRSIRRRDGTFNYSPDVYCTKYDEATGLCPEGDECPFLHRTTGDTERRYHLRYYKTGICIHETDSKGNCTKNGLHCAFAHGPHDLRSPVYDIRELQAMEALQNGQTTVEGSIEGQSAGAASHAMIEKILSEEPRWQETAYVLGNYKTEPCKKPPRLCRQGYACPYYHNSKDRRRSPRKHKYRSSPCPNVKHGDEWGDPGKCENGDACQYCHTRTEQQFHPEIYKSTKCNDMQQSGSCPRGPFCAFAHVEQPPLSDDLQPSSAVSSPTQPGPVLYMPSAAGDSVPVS
Setting: RNA with constant flanks, vertebrate orthologous sites, ends assumed
| Sequence | bound/input enrichment |
| --- | --- |
| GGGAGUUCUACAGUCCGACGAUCUAUUCAUUUGAUUAAAAUUAUUUAGAUAAGAAAUCAUUACUGUUUAGCUUUGCUUUCAGACAGUGUAUCCUAUUAUUUAUCCAUUUUGCAAAAUAUCACUUGUGUGUGGUUUCUUAACAUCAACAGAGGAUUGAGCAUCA | 0.557 ratio |
| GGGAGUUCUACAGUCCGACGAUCUGGGUUACUCCUCUUAUUAUCAAGUAGCUGGAAUUGUGAAGGUCGGAGUAGUUAGAUCUUUAGCUUUUAUUCCUUAUUUUUUGUAUUACUAUCCAUGUGUAUAAAUUAUUGAUCAUGUUGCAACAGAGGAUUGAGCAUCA | 2.87 ratio |
| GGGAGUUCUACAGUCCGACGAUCCUUUUAAUCGACUAUGUCUGUAAAUGUAUAUUGAGAGAAUUGAAGUAUUUAUAAACAGAGUGAUUUAUUUAAGGAAAAGCUUAUCCCUCUUUCAUAUGGUGGUCUGUGUUAAUUCCAUUUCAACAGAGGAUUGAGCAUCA | 0.623 ratio |
| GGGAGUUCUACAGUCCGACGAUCCUGUUGUUAAGCACUGUGUUCCAGACCGUGUCUGACUUUAGUGUAACCUAGGAGAUUUUAUAGUUUAUUUUAAUGAAAUCCUGCUUGACGCAGAACAGCGGGGAGAGCAGUGUCUUCUACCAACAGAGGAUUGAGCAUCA | 1.85 ratio |
| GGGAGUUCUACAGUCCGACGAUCGUUAGGUCAUGACCCUUACAGGUUAGGUCAUGAUGCCUACAGAUUAGGUCAGGACCCUUAUAGAUUAGGCCAUGAUCCCUAUAGACUAACUCCAGAUCCCUAUAGGAUGUCACCUAGACCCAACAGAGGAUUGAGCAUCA | 0.463 ratio |
| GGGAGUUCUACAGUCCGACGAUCCAUUGAACCCUGCUGUAUAAUAAACUAUCUUAGACAUUUAUCAACUGUUGAUACAAAUGUUAGUCCCUAACCACUUUUUAUAUGUUUUAAAUUUUUGAAAUUCAAGUGUACCUGCCAUAACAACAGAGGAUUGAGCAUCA | 2.25 ratio |
| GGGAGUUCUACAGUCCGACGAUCUAAGAUCUGGAUUGUGGAGCCAAACCAAGGGGUUUGAAAGUAUAGAGGUUUGUAAAGUUCCAGCCCCGCAGCUGCACAGCACACCACCACUGCUGCUGUGCUCAGGUGUUUAUUGCAGUCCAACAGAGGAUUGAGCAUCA | 0.362 ratio |
| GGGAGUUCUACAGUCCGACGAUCGGUCAUGUAUAGCAAUUAGAAUGGGUUGCCCUUCUACUUCUCCCAAGAAGAAAUCCCAUAUAGAUUCCUUUCAUGUCAGAUUAUACUGUUCUGAUUUUAUUUUCUAUUAUUUUUACAUAUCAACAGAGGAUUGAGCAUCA | 0.573 ratio |
| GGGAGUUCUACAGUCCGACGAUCUCAUUGUACUGCCUGCGUCACCCUAGUUUUAAACCAGCUGCUGUGAUAACUAGUGUGUGCUAGCAGAAUUAUUUACUAUUACCUUUUAAACUAUGCGCUUUGCCCGAUAGCUGAAAGCAACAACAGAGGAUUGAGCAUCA | 1.6 ratio |
| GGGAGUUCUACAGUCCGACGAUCGGCAACCCAGGGAUUCAGGACUGGUCUGAUAAAUGCCCCCCACAGAUAUGGAACUGGCACUCGGGGUCAGUCCAGACCUUAAUAAACUAUUUUUUUGUAUUUAUUGUUUGAAUUUAUUUUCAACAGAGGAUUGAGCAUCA | 0.324 ratio |
| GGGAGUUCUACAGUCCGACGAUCUAAUUCAAUGGUCGAGGGUUCAGAACUCAAAAAGGUUCGCUCCAACUCCAGAAUUUACCAUAGGUAUUUUUUACUGGACGCCGACAUGCAGAGCCUGAGGUGGGAACCAUCUAAGAAGGACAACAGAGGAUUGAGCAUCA | 0.114 ratio |

Study 2 — technique: universal PBM; molecule type: double-stranded DNA, one strand shown; medium: in vitro; concentration: not given; reading: higher = stronger binding
Target: Sal-like protein 4, full length isoform B (SALL4, Homo sapiens, UniProt Q9UJQ4-2, residues 1-616)
Setting: 8-mer, flanks averaged, mean of replicates
Construct (chain): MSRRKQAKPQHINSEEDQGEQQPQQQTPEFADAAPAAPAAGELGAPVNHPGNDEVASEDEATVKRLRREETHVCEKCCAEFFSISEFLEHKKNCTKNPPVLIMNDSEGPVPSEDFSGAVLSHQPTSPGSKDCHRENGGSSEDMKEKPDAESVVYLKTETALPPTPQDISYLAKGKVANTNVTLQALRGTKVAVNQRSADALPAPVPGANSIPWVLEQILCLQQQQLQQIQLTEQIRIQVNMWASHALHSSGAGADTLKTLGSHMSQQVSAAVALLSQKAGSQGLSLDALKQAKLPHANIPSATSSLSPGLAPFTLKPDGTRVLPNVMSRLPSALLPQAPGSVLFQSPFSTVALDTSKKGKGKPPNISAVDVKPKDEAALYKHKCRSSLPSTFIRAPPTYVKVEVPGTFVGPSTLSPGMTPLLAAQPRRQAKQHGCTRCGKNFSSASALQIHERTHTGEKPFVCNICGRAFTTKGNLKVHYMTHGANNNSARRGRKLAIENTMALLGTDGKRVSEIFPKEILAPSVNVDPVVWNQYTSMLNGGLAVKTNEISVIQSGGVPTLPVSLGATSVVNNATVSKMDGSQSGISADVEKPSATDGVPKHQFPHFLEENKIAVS
| Sequence | E-score |
| --- | --- |
| GAATGGCC | -0.251 |
| CTCAATTA | 0.173 |
| AGAATTAG | 0.0854 |
| AAAGTTGA | 0.142 |
| AAGACCTC | -0.183 |
| CTCAATGC | 0.0151 |
| ACAAGAAG | -0.0139 |
| CCCTCTCG | -0.236 |
| CATCGGAC | -0.241 |
| ATAGTCAG | 0.119 |
| GGTACCTA | -0.0966 |
| AACGATAT | 0.313 |
| GGATATAC | 0.139 |
| GAGGTAAA | 0.0825 |
| GAATCTCA | -0.0901 |
| GGACTCAC | -0.184 |
| CGACCGGC | -0.284 |
| CATCCCAC | -0.242 |
| CTTGTATA | 0.248 |
| CCCCGCAC | -0.353 |
| CTTCGTTA | 0.0743 |

Study 3 — technique: DHFR PCA, deep sequencing; medium: yeast; together with: (+)-ABA 0.0091 µM; relative to: wild-type fitted maximum; reading: higher = stronger binding
Target: ABI1, truncated, D143A, DHFR fusion (Arabidopsis thaliana)
Setting: methotrexate growth selection, single substitutions
Starting sequence: PYL1, truncated, DHFR fusion (Arabidopsis thaliana); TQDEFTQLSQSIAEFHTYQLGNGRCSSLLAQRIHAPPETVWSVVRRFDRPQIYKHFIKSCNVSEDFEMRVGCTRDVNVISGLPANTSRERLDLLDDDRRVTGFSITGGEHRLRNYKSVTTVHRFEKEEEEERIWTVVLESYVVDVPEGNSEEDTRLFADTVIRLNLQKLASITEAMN; partner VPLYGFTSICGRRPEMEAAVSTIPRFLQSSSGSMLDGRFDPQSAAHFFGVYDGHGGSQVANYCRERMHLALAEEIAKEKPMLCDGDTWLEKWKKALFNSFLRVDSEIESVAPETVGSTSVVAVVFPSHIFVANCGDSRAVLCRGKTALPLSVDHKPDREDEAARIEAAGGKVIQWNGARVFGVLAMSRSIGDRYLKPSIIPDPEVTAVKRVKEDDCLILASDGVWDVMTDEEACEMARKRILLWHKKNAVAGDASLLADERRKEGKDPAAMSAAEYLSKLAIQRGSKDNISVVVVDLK
| Variant | relative binding score [%] |
| --- | --- |
| L94Q | -7.7 |
| F47H | 14.6 |
| Y53E | -2.91 |
| L169P | 2.92 |
| V145Y | 1.57 |
| E4Q | 9.15 |
| I162M | 2.26 |
| I133G | 41 |
| S140H | -0.744 |
| R98S | -2.59 |
| T154F | -4.25 |
| V143F | 2.44 |
| E38G | 12.6 |
| R98N | 5.91 |
| A158I | 50.1 |
| D92F | 1.42 |
| R111Q | 4.13 |
| R98Q | 11.7 |
| D96T | 11.3 |
| E174P | -0.334 |
| Y141H | 3.72 |
| S104K | -7.46 |
| R123F | -9.71 |
| L164I | 5.91 |
| G102V | -0.774 |

Study 4 — technique: RNA Bind-n-Seq; molecule type: RNA; medium: in vitro; concentration: 365 nM; relative to: no-protein control; reading: higher = stronger binding
Target: RNA binding protein fox-1 homolog 2, RRM domain, GST-SBP tag (RBFOX2, Homo sapiens, UniProt O43251-10, residues 100-194)
Setting: natural RNA segment, single round, ends assumed
Construct (chain): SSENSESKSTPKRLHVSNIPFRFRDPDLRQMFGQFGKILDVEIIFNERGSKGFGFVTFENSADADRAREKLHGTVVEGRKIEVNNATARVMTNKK
| Sequence | RBNS enrichment (R) |
| --- | --- |
| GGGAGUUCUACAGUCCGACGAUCUAUGCAUGUUCCUUUCAUGUGUAUUUAAUCAUGAUGUUUAAUUUUGCACACUUAUUUGUAAUGUUUCUUUUAAAUAAAAGUGACUAAUUUUGUUGUAGUCUGGACCUGUAUGGAAUUCUCGGGUGCCAA | 0.572 |
| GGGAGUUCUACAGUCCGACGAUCAAAAGGGAUACCGUGGGACUCUGCCCGUCUCUUUCAUAACGCAAUAUUUAUUUGUAUUGGGUGAUGAUUGAUUCUUUCGACCUAACAUUUUGGGUUUUAACCAAAUAACCUGGAAUUCUCGGGUGCCAA | 0.206 |
| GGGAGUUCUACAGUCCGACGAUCAGUGAACUGAUGCUCCCACCUGGGUGCCUCCAUGGCUUCCUUGAGCAACUGUCCCUAAGAUGCUUUCAAGUGUAUGAGACAUGAGGAGGCUGGGCCACUCUGGUUAUGCAUGGAAUUCUCGGGUGCCAA | 3.45 |
| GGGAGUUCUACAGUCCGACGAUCCACAGCUUUUUCAAAUUACCAGUAAUUUGUCUUGUUUCUAAGGAGUGGGCCAGUACUAACUUAACUUGGUGUUCAGCAAGGGAUGCAGACGGAGAGCUCCCUUCUGCAGGUGGAAUUCUCGGGUGCCAA | 0.651 |
| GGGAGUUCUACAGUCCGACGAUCAGCUAGAAGAGCUUCCCCCUGACACCCUGUGACUGAGCCUGUGUCCUGUCUGCCUGCCCAGCCAUGCUCCAUCGGCUGUGAGGGCAGUGCCCGGAGAGGCCAGAGGGUUGUGGAAUUCUCGGGUGCCAA | 0.505 |
| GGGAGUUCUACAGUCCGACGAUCUCAAGUGUCCCCACAGUCCUAAGCGGACAUGUUUGUUAUGUUGUAAAUUUUAUUUGGUUUGUACUCAAUUCAAUUUCAAAAUUGCUAAAAUGUGUUUGAGCUUUAGACUAUGGAAUUCUCGGGUGCCAA | 0.412 |
| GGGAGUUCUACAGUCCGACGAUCAUGCUGUGGUUUAACAUUGACACUUAAAGCAUGUGGUCACUGGGAAGGAUUGUAAUGUCAGCAGGUGUUGCCUGAAAGAGUUCUGUGUAGACACUUCUGGGACGUUGCUGUGGAAUUCUCGGGUGCCAA | 2.06 |
| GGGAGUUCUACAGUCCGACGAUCAGAUGAUGUGACAACCUCUAAUAUUUAUCUAAUAAAUAUGUAUUCAGAUGAAACCUGUAUAUUAGGUGUUCAUGUGGUUAUUUUGUAUUUAAAGAUCAAAUUAUUUGACUUGGAAUUCUCGGGUGCCAA | 0.283 |
| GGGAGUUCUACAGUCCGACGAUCAUUUUUAUUUGACUCUGUGGCUCUAAGACUGCCUUGAACCGCCUGAGGCCUAUGCAUCUGAACAAGUGGGUCUCUCCCUUGAGCACCAGGAGUGGGUGCCAGCCGGCCCCUGGAAUUCUCGGGUGCCAA | 0.48 |

Excerpt of the above (study 3):
| Variant | relative binding score [%] |
| --- | --- |
| E4Q | 9.15 |
| I162M | 2.26 |
| I133G | 41 |
| S140H | -0.744 |
| R98S | -2.59 |
| T154F | -4.25 |
